Assay results from different studies.
A part holds a random share of what one study measured. Values joined by “and” are separate records of one study, mostly repeats; a detail may differ.
Sequence of UniProt Q96Q40 (whole entry, looked up): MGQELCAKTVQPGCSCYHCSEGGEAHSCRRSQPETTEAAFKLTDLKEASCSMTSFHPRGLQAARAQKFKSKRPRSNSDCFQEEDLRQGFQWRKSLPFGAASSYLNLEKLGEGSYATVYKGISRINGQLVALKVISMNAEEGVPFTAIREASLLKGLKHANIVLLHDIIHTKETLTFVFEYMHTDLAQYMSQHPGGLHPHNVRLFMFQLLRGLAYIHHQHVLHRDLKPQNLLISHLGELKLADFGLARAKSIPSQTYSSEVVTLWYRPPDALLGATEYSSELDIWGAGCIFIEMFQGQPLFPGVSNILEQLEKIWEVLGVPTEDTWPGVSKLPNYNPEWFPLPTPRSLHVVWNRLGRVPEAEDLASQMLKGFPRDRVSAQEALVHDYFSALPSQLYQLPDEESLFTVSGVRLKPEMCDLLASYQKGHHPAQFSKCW
Sequence of UniProt O94921 (whole entry, looked up): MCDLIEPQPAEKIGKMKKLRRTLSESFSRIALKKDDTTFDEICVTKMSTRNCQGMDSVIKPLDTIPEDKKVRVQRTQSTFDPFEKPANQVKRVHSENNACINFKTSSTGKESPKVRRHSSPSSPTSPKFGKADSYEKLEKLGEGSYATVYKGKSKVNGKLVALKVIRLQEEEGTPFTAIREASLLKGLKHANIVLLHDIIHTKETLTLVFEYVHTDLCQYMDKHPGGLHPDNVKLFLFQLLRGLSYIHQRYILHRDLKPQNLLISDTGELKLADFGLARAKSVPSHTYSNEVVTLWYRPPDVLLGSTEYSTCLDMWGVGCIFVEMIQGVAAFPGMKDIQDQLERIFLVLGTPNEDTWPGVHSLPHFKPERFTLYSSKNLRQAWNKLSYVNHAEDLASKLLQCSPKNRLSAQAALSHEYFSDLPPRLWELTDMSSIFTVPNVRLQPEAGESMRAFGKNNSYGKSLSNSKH
Sequence of UniProt P51957 (whole entry, looked up): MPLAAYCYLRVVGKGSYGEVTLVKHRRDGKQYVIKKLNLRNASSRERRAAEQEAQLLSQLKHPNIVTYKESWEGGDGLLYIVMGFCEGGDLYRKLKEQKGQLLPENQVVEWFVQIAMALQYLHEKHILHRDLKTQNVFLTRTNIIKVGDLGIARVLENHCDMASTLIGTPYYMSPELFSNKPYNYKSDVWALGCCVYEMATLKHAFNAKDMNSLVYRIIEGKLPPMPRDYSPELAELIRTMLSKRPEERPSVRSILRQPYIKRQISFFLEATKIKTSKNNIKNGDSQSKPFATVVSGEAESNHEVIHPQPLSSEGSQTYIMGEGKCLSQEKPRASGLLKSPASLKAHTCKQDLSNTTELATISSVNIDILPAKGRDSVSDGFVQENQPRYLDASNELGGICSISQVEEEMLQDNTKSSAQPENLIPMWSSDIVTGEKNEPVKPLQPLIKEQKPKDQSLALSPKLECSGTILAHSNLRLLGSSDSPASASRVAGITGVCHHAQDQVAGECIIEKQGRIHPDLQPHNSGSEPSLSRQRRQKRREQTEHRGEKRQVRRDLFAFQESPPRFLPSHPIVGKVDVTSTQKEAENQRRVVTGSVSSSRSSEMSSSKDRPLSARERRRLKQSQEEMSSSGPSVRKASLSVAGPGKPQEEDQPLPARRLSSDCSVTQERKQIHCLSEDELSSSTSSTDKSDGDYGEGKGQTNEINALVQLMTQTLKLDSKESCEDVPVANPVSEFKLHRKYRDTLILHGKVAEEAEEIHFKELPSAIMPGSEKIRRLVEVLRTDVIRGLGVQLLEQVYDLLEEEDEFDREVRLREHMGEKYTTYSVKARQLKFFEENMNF
Sequence of UniProt O15146 (whole entry, looked up): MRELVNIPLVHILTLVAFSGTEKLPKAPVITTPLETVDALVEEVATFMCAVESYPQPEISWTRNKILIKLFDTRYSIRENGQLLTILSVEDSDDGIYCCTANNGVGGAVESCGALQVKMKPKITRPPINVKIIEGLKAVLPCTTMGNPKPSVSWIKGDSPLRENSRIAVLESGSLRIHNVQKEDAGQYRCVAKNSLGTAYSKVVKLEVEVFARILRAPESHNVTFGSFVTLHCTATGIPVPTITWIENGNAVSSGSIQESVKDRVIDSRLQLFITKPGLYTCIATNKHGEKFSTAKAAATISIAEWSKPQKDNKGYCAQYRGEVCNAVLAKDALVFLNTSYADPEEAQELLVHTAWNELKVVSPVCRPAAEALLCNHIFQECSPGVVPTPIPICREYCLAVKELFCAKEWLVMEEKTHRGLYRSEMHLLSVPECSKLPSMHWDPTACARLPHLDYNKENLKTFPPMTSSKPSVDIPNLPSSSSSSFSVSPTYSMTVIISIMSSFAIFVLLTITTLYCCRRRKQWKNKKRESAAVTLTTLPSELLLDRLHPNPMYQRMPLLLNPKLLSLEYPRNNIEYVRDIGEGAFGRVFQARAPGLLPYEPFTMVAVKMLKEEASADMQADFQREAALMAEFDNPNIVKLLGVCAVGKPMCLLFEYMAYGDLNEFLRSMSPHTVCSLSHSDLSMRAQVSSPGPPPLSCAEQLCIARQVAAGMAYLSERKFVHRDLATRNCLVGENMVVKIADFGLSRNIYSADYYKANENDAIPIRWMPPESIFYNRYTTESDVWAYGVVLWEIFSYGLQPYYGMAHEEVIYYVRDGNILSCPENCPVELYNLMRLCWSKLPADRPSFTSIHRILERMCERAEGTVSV
Sequence of UniProt Q9Y616 (whole entry, looked up): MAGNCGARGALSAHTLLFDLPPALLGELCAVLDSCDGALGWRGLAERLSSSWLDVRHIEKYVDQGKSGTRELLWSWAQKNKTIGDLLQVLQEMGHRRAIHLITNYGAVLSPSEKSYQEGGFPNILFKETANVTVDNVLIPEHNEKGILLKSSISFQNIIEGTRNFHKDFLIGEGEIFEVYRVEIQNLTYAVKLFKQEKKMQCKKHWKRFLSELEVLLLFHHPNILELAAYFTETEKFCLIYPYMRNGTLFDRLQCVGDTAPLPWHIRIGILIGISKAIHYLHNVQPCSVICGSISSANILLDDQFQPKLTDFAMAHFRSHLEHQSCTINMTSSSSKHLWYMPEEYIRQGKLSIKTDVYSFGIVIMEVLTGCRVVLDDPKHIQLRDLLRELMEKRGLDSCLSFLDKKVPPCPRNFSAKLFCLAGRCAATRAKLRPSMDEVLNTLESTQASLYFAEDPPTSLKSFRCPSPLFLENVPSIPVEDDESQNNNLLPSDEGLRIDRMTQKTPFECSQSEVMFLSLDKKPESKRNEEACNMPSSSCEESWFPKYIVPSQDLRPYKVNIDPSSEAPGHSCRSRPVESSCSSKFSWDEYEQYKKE
Sequence of UniProt Q8TD08 (whole entry, looked up): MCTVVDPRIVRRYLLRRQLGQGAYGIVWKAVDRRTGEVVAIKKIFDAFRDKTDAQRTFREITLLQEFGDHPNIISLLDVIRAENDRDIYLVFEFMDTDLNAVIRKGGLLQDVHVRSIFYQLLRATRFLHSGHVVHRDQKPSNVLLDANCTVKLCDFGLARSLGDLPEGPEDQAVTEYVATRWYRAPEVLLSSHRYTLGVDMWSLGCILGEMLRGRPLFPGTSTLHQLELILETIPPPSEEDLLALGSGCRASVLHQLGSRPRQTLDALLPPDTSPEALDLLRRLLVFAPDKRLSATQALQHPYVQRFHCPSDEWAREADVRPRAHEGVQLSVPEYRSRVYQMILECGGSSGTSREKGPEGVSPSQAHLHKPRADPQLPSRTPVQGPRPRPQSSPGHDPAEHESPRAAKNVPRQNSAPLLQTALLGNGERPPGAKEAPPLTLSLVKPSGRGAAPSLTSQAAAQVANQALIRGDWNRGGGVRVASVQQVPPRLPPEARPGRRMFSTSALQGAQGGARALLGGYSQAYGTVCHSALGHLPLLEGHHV
Sequence of UniProt Q15139 (whole entry, looked up): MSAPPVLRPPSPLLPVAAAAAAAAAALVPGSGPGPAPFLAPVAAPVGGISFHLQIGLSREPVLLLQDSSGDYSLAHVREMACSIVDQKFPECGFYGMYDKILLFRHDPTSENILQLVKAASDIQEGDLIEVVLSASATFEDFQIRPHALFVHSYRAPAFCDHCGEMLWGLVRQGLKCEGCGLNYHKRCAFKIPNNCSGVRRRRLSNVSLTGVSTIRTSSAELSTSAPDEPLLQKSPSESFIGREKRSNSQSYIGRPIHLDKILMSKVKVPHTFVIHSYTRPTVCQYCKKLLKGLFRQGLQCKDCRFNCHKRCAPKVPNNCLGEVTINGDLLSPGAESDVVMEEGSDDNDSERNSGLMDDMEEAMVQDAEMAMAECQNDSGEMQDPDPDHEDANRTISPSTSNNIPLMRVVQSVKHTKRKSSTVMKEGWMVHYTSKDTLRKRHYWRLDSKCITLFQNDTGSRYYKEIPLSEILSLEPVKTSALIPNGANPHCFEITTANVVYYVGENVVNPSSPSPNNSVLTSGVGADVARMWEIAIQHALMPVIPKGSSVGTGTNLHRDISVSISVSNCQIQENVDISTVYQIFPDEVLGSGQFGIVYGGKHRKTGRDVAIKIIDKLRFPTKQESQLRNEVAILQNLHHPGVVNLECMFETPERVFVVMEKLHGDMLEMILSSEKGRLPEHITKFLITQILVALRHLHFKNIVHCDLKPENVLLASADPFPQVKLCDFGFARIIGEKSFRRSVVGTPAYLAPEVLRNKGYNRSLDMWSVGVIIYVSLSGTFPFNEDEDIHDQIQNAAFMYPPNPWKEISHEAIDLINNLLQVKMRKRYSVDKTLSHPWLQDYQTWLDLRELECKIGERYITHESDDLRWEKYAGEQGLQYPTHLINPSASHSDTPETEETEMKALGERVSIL

Block 1
Structure (SMILES): COc1cc(-c2cn(C3CCc4ccccc4N(CC(F)(F)F)C3=O)nn2)ccc1-n1ccc(C)n1 (centres unmarked)
Method: competition with immobilised ligand
Concentration: 1 µM
| target | test | remaining binding [%] |
| --- | --- | --- |
| CAMK2B (Homo sapiens, UniProt Q13554) | cell-free assay | 97 |
| EGFR (Homo sapiens, UniProt P00533, del747-752/P753S) | cell-free assay | 100 |
| EIF2AK2 (Homo sapiens, UniProt P19525) | cell-free assay | 87 |
| Tyrosine-protein kinase JAK3, JH1 (JAK3, Homo sapiens, UniProt P52333) | cell-free assay | 88 |
| ACVR2A (Homo sapiens, UniProt P27037) | cell-free assay | 100 |
| GAK (Homo sapiens, UniProt O14976) | cell-free assay | 92 |
| CDK14 (Homo sapiens, UniProt O94921) | cell-free assay | 100 |
| ROCK2 (Homo sapiens, UniProt O75116) | cell-free assay | 100 |
| PIK3C3 (Homo sapiens, UniProt Q8NEB9) | cell-free assay | 100 |
| PDGFRB (Homo sapiens, UniProt P09619) | cell-free assay | 100 |
| Myosin-IIIb (MYO3B, Homo sapiens, UniProt Q8WXR4) | binding | 100 |
| FLT3 (Homo sapiens, UniProt P36888, D835V) | cell-free assay | 80 |
| CLK2 (Homo sapiens, UniProt P49760) | cell-free assay | 100 |
| CDKL2 (Homo sapiens, UniProt Q92772) | binding | 91 |
| Tyrosine-protein kinase ABL1, phosphorylated (ABL1, Homo sapiens, UniProt P00519) | cell-free assay | 75 |
| Ribosomal protein S6 kinase alpha-3, C-terminal kinase domain (RPS6KA3, Homo sapiens, UniProt P51812) | cell-free assay | 100 |
| DDR2 (Homo sapiens, UniProt Q16832) | cell-free assay | 99 |
| IRAK3 (Homo sapiens, UniProt Q9Y616) | cell-free assay | 91 |
| CDK11A (Homo sapiens, UniProt Q9UQ88) | binding | 97 |
| ALK (Homo sapiens, UniProt Q9UM73, C1156Y) | cell-free assay | 100 |
| NLK (Homo sapiens, UniProt Q9UBE8) | binding | 100 |
| MYLK2 (Homo sapiens, UniProt Q9H1R3) | binding | 73 |
| EGFR (Homo sapiens, UniProt P00533, L858R/T790M) | cell-free assay | 65 |
| FLT3 (Homo sapiens, UniProt P36888, D835Y) | cell-free assay | 92 |
| CDK15 (Homo sapiens, UniProt Q96Q40) | cell-free assay | 100 |

Block 2
Target: Cyclin-dependent kinase 7 (CDK7, Homo sapiens, UniProt P50613)
Sequence of UniProt P50613 (whole entry, looked up): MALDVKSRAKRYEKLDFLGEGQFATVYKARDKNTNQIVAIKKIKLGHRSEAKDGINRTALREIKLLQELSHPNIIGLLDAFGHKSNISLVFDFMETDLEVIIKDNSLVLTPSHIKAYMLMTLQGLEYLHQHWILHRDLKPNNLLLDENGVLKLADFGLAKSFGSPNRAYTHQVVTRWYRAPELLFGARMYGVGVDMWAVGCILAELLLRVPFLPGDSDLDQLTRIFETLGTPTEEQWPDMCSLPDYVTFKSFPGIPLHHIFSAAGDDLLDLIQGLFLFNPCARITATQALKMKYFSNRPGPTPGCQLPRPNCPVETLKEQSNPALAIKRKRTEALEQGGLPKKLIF
Read-out: enzyme activity
Action: inhibitor
Concentration: 0.5 µM
Baseline: control
| SMILES | remaining activity [%] |
| --- | --- |
| C[C@@H]1CCN(C(=O)CC#N)C[C@@H]1N(C)c1ncnc2[nH]ccc12 | 119 |
| N#C/C(=C\c1ccc(O)c(O)c1)C(=O)NCc1ccccc1 | 120 |
| Cc1cc2ncc(-c3ccccc3)nc2cc1C | 98.5 |
| COc1cc2c(cc1OC)-c1[nH]nc(Nc3cccc(F)c3)c1C2 | 101 |
| N#Cc1c(NC(=O)c2cccc3ccccc23)sc2c1CCCC2 | 101 |
| Ic1cccc(CSc2nnc(-c3ccncc3)o2)c1 | 96.7 |
| O=C1C(Cl)=C(N2C(=O)CCC2=O)C(=O)c2ccccc21 | 101 |
| CCOc1nc(NC(=O)Cc2cc(OC)ccc2OC)cc(N)c1C#N | 103 |
| CCN(CC)CCNC(=O)c1c(C)[nH]c(/C=C2\C(=O)Nc3ccc(Cl)cc32)c1C | 72.8 |
| Cc1cn(-c2cc(NC(=O)c3ccc(C)c(Nc4nccc(-c5cccnc5)n4)c3)cc(C(F)(F)F)c2)cn1 | 109 |
| CCN(CC)C(=O)c1ccc(Nc2nc(OCC3CCCCC3)c3[nH]cnc3n2)cc1 | 87.6 |
| c1ccc(-c2[nH]ncc2-c2ccnc3ccccc23)nc1 | 104 |
| O=C1c2ccccc2-c2n[nH]c3cccc1c23 | 94.7 |
| c1ccc(-c2cnc(Nc3ccc(OCCN4CCCC4)cc3)s2)cc1 | 102 |
| O=c1cc(-c2cccc3c2Sc2ccccc2S3)oc(N2CCOCC2)c1 | 96.5 |
| Cc1nc2cc3nc(-c4cccs4)cnc3cc2n1C | 102 |
| O=C(Nc1cccc(Nc2nccc(Nc3cccc(C(F)(F)F)c3)n2)c1)C1CC1 | 92.6 |
| COc1cc2ncnc(Nc3cccc(Cl)c3)c2cc1OC | 99.9 |
| COc1cc2ncnc(Nc3ccc(O)c(Br)c3)c2cc1OC | 97 |
| Nc1cccc(-c2cc3c(Oc4cccc(O)c4)ncnc3[nH]2)c1 | 94.2 |
| CN(C)C[C@H]1CCn2c(c(C3=C(c4cn(C)c5ccccc45)C(=O)NC3=O)c3ccccc32)C1 | 83 |
| O=C(NC(NC(=S)Nc1ccc(F)c([N+](=O)[O-])c1)C(Cl)(Cl)Cl)C(c1ccccc1)c1ccccc1 (centres unmarked) | 99 |
| Cn1nc2c3c(cccc31)C(=O)c1ccccc1-2 | 98.8 |
| CN([C@@H](Cc1ccc(OS(=O)(=O)c2cccc3cnccc23)cc1)C(=O)N1CCN(c2ccccc2)CC1)S(=O)(=O)c1cccc2cnccc12 | 99.4 |

Block 3
SMILES: CC#CC(=O)N1CCC[C@H]1c1nc(-c2ccc(C(=O)Nc3ccccn3)cc2)c2c(N)nccn12
Action: inhibitor
Concentration: 1 µM
| target | test | inhibition |
| --- | --- | --- |
| NEK4 (Homo sapiens, UniProt P51957) | enzyme activity | 0% |
| CDK11B (Homo sapiens, UniProt P21127) | enzyme activity | 2% |
| Cyclin-dependent kinase 4, with cyclin D1 (CDK4, Homo sapiens, UniProt P11802) | enzyme activity | 0% |
| MYLK4 (Homo sapiens, UniProt Q86YV6) | enzyme activity | 1% |
| WNK4 (Homo sapiens, UniProt Q96J92) | enzyme activity | 37% |
| MAPK13 (Homo sapiens, UniProt O15264) | enzyme activity | 20% |
| PRKD1 (Homo sapiens, UniProt Q15139) | enzyme activity | 1% |
| Tyrosine-protein kinase JAK1, JH1 kinase domain (JAK1, Homo sapiens, UniProt P23458) |  | 2% |
| PRKAA1 (Homo sapiens, UniProt Q13131) | enzyme activity | 0% |
| MAPK15 (Homo sapiens, UniProt Q8TD08) | enzyme activity | 0% |
| MAPK9 (Homo sapiens, UniProt P45984) | enzyme activity | 0% |
| MUSK (Homo sapiens, UniProt O15146) | enzyme activity | 4% |
| CAMK1G (Homo sapiens, UniProt Q96NX5) | enzyme activity | 16% |

Block 4
SMILES: C=CC(=O)N1CCN(c2nc(=O)n(-c3c(C)ccnc3C(C)C)c3nc(-c4c(O)cccc4F)c(F)cc23)[C@@H](C)C1
Read-out: binding
Method: NanoBRET
Cell line: HEK293 (live)
Reading: lower = stronger binding
HRAS G12V: GTPase HRas (HRAS, Homo sapiens, UniProt P01112, G12V)
HRAS: GTPase HRas (HRAS, Homo sapiens, UniProt P01112)
| target | conditions | target engagement |
| --- | --- | --- |
| HRAS G12V | 1.301 µM | 87.6% and 96.6% and 92.5% and 105% |
| HRAS G12V | 0.8239 µM | 92.4% and 108% and 97.4% and 97% |
| HRAS G12V | 0.3468 µM | 85.2% and 94% and 109% and 93.6% |
| HRAS | 0.3468 µM | 80.7% and 93.6% and 91.4% |
| HRAS | 0.8239 µM | 86% and 89.3% and 84.9% |
| HRAS | 1.301 µM | 82.6% and 77.9% and 84.4% |

For quick reference, copied from above (block 4):
| target | conditions | target engagement |
| --- | --- | --- |
| HRAS G12V | 1.301 µM | 87.6% and 96.6% and 92.5% and 105% |
| HRAS G12V | 0.8239 µM | 92.4% and 108% and 97.4% and 97% |
| HRAS G12V | 0.3468 µM | 85.2% and 94% and 109% and 93.6% |
| HRAS | 0.3468 µM | 80.7% and 93.6% and 91.4% |
| HRAS | 0.8239 µM | 86% and 89.3% and 84.9% |
| HRAS | 1.301 µM | 82.6% and 77.9% and 84.4% |
